# Measured values of several laboratories.
# Each numbered part is a random draw from the data of one study; scales do not carry over between parts. Several values in a cell are separate wells, animals, samples, runs or records.
# Sequence of UniProt Q96SW2 (whole entry, looked up): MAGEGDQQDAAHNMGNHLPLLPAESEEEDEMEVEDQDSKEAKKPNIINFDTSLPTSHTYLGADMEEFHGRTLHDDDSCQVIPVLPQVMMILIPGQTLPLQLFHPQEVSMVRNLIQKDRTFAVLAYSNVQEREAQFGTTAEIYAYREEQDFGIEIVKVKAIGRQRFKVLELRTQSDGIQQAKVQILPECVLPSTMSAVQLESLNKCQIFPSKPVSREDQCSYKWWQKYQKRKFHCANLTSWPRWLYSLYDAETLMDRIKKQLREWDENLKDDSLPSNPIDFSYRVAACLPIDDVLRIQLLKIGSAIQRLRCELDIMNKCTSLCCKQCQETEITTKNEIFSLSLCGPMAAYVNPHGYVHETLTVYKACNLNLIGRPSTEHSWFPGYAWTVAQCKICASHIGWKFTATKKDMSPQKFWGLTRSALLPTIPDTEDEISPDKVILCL
# Sequence of UniProt Q9HAZ1 (whole entry, looked up): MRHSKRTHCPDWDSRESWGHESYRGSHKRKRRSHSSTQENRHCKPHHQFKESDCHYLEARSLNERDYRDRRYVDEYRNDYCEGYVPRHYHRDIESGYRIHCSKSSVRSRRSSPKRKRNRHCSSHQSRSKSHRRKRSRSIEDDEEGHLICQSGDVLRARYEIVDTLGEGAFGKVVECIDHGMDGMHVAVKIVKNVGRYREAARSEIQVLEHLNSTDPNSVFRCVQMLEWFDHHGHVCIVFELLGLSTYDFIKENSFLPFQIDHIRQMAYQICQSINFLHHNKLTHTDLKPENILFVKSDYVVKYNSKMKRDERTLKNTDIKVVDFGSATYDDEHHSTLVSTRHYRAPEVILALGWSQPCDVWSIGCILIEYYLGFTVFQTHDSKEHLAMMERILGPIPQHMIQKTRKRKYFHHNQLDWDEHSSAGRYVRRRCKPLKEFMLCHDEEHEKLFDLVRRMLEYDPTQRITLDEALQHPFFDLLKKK
# Sequence of UniProt Q9UQB9 (whole entry, looked up): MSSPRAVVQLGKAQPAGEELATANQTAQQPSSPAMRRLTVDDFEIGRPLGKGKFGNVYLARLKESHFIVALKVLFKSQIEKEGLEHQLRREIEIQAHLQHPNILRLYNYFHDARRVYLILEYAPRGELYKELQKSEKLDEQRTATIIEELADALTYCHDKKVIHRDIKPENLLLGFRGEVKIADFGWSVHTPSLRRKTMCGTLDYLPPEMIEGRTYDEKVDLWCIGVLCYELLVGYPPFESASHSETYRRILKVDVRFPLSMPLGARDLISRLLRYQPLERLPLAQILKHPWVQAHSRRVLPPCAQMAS
# Sequence of UniProt Q13976 (whole entry, looked up): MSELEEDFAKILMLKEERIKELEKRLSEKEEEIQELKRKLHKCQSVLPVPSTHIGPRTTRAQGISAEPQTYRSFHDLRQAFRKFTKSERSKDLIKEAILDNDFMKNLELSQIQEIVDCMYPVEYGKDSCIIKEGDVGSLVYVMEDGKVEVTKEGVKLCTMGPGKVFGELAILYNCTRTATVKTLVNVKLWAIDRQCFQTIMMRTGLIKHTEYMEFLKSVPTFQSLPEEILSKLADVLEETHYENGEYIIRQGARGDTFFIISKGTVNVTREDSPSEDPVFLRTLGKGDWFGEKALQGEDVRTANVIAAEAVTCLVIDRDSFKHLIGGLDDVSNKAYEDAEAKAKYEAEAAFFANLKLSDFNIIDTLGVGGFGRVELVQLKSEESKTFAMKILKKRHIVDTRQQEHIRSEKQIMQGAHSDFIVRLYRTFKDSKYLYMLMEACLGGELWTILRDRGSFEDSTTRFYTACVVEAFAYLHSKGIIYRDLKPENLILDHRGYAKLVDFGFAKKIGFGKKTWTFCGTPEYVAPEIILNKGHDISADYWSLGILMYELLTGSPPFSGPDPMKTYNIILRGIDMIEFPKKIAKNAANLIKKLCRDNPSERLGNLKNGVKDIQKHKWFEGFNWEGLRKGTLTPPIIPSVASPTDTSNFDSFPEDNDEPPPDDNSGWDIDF
# Sequence of UniProt Q9HC98 (whole entry, looked up): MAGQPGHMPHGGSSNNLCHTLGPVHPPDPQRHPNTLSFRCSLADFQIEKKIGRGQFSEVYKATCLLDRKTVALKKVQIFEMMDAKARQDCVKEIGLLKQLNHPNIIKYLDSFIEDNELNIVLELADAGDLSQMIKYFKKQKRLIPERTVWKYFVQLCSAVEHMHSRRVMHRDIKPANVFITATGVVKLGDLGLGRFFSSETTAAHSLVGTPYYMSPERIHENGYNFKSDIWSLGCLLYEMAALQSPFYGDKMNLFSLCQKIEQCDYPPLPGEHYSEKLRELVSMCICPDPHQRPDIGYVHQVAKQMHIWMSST

# Sample 1
# SMILES: Cc1ccc(O)c(C)c1-c1cnc2[nH]c(-c3cnc(N4CCC5(CC4)CC(N4CCN(c6ccc(N[C@H]7CCC(=O)NC7=O)cc6F)CC4)CO5)nc3)cc2c1C#N (single isomer, unassigned)
# PKMYT1: Membrane-associated tyrosine- and threonine-specific cdc2-inhibitory kinase (PKMYT1, Homo sapiens, UniProt Q99640)
# Sequence of UniProt Q99640 (whole entry, looked up): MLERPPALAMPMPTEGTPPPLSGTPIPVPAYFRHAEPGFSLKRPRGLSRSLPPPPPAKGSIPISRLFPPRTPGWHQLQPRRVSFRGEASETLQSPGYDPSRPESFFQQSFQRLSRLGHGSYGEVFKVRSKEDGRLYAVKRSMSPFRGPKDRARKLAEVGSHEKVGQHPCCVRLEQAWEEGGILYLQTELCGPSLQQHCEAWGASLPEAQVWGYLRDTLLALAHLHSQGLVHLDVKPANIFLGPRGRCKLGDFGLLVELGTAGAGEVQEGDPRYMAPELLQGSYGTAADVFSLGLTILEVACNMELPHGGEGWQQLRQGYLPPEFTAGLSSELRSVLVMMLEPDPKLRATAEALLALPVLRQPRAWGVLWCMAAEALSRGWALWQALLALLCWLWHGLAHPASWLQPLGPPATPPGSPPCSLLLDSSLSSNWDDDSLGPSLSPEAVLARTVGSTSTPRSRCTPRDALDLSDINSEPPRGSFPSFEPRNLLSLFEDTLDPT
target or system,test,setting,inhibition
U-251 MG,cell growth,30000 nM,91%
HCC1806,cell proliferation,4.572 nM,-4.34% and -2.8% and -0.86%
HuCCT-1,cell proliferation,3333.33 nM,96.9%
"Protein cereblon (CRBN, Homo sapiens, UniProt Q96SW2)",binding,41.15 nM,8.09% and 5.97%
PKMYT1,,0.001524 µM,22.2%
PKMYT1,,3.333 µM,98%
PKMYT1,"enzyme activity, inhibitor",0.3333 µM,98.1%
PKMYT1,"enzyme activity, inhibitor",12.35 nM,61.2%
RKO,cell proliferation,13.72 nM,-0.5% and 1.74%

# Sample 2
# SMILES: C[C@@H]1CN(c2ccc(-c3cc(C(=O)NCCOCCOCCOCCOCCOCCOCCNC(=O)/C=C/c4[nH]cc(C(=O)N[C@@H](CC(N)=O)c5ccc(F)c(Cl)c5)c4-c4ccc(Cl)cc4F)ccc3F)cc2NC(=O)c2ccc(F)cc2C(F)(F)F)C[C@H](C)N1C
# Read-out: thermal unfolding
# Technique: differential scanning fluorimetry
# Concentration: 5.5 µM
# Direction: higher = more unfolded
# WDR5: WD repeat-containing protein 5 (WDR5, Homo sapiens, UniProt P61964)
# DCAF1: DDB1- and CUL4-associated factor 1 (DCAF1, Homo sapiens, UniProt Q9Y4B6)
# Sequence of UniProt Q9Y4B6 (whole entry, looked up): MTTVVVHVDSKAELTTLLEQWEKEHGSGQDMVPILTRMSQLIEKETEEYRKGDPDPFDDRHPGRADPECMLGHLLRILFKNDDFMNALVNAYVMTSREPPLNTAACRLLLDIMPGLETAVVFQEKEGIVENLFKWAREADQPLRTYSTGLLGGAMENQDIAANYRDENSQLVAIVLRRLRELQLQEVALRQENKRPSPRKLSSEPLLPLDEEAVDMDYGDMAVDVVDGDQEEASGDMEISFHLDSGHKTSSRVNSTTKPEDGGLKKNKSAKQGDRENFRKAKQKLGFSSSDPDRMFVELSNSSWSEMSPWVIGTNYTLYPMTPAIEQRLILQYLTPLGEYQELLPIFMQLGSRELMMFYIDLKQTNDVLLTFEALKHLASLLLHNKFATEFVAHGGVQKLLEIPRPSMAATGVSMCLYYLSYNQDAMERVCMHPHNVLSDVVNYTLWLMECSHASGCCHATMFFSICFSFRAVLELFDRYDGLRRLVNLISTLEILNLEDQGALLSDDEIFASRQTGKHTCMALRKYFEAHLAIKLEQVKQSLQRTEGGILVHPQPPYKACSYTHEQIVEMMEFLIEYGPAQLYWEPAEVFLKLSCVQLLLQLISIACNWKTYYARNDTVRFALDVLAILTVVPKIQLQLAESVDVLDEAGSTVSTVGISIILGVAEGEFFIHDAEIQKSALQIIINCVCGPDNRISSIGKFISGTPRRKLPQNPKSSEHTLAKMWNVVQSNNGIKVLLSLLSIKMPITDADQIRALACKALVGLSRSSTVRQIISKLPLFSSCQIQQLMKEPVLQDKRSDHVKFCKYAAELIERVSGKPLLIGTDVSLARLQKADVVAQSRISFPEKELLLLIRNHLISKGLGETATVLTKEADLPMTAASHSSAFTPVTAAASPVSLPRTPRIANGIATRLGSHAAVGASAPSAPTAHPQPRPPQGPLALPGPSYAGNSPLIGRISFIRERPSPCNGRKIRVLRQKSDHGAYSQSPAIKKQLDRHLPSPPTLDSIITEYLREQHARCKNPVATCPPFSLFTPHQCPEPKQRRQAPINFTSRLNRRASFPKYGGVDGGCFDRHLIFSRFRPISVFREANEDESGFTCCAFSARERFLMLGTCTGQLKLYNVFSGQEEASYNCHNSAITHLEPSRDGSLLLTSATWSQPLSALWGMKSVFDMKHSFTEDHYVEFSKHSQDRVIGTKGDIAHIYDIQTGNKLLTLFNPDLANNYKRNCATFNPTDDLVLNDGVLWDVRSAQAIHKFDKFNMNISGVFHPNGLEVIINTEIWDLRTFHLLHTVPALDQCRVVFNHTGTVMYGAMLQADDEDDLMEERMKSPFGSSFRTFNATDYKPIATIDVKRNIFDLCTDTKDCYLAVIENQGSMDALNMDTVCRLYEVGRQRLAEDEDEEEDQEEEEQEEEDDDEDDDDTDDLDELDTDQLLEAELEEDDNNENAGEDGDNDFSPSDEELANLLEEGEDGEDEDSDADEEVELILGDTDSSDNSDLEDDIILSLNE
target,setting,SYPRO Orange fluorescence
WDR5,87.21 °C,59000 a.u.
DCAF1,48.4 °C,16900 a.u.
DCAF1,69.21 °C,49100 a.u.
WDR5,90.61 °C,54100 a.u.
WDR5,33.4 °C,13800 a.u.
WDR5,36.2 °C,13900 a.u.
DCAF1,43.8 °C,14000 a.u.

# Sample 3
# SMILES: CNc1ncc2cc(-c3cc(OC)cc(OC)c3Cl)c(=O)n(CCc3ccc(NC(=O)C(C#N)=CC(C)(C)N4CCOCC4)cc3)c2n1
# Read-out: kinase activity
target,setting,inhibition
"Protein kinase C beta type, isoform beta-I (PRKCB, Homo sapiens, UniProt P05771)",0.1 µM,1%
"CLK4 (Homo sapiens, UniProt Q9HAZ1)",1 µM,-2%
"ERBB4 (Homo sapiens, UniProt Q15303)",1 µM,-3%
"ROCK2 (Homo sapiens, UniProt O75116)",1 µM,-10%
"TBK1 (Homo sapiens, UniProt Q9UHD2)",0.1 µM,0%
"ALK (Homo sapiens, UniProt Q9UM73)",1 µM,2%
"PRKG1 (Homo sapiens, UniProt Q13976)",0.1 µM,1%
"Aurora kinase C (AURKC, Homo sapiens, UniProt Q9UQB9)",0.1 µM,-1%
"CAMK2B (Homo sapiens, UniProt Q13554)",1 µM,4%
"ROCK1 (Homo sapiens, UniProt Q13464)",0.1 µM,-4%
"FGR (Homo sapiens, UniProt P09769)",0.1 µM,2%
"PLK4 (Homo sapiens, UniProt O00444)",1 µM,5%
"NEK6 (Homo sapiens, UniProt Q9HC98)",1 µM,-7%
"BRSK1 (Homo sapiens, UniProt Q8TDC3)",0.1 µM,1%

# Mixed results
# Target: Sodium-dependent neutral amino acid transporter B(0)AT1 (SLC6A19, Homo sapiens, UniProt Q695T7)
# Sequence of UniProt Q695T7 (whole entry, looked up): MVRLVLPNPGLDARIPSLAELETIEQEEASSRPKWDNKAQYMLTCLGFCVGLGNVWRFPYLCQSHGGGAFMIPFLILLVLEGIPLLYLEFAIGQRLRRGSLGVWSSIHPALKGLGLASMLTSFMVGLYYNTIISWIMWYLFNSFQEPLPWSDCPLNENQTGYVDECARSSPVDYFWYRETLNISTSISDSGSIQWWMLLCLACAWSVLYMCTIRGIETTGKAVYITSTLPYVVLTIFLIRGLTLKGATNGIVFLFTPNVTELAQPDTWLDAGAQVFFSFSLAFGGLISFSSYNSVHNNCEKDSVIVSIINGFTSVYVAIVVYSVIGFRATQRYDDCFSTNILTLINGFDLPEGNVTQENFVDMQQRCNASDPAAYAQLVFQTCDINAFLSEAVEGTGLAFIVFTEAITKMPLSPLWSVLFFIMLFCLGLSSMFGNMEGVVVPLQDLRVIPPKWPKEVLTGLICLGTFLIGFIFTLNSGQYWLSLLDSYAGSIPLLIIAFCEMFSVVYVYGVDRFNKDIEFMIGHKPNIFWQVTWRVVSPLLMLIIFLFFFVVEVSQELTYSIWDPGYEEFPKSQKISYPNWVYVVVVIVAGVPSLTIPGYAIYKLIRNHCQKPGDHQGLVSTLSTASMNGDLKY
SMILES,test,system,setting,scale,quantity,result
CCNC(=O)COc1cc(C)c(Cl)c(C)c1,"inhibitor, L-[14C]leucine uptake",CHO-BC cells,first repeat,,IC50,0.58 µM
CC(C)NC(=O)COc1cccc2ccccc12,FLIPR membrane potential,CHO-BC,concentration not given,baseline: background subtracted,remaining activity,9.77%
CC(C)NC(=O)COc1ccc(Cl)cc1,"inhibitor, L-[14C]leucine uptake",CHO-BC cells,second repeat,,IC50,14.2 µM
Cc1cc(OCC(=O)NC(C)C)ccc1Cl,"inhibitor, FLIPR membrane potential",CHO-BC cells,30 µM,,normalised transport activity,0.2

# Some of these lines once more (sample 1):
target or system,test,setting,inhibition
"Protein cereblon (CRBN, Homo sapiens, UniProt Q96SW2)",binding,41.15 nM,8.09% and 5.97%
PKMYT1,,3.333 µM,98%
PKMYT1,"enzyme activity, inhibitor",0.3333 µM,98.1%
